Results pooled from the literature.
Numbered parts are unrelated; each lists some results of a single study.

Block 1
Target: Replicase polyprotein 1ab, main protease (rep, Severe acute respiratory syndrome coronavirus 2, UniProt P0DTD1)
Effect on: enzyme activity
Action: inhibitor
Tested at: 20 µM
Setting: hit confirmation
SMILES	inhibition [%]
C=C1C(=O)O[C@H]2[C@H]1CC/C(C)=C\CC[C@@]1(C)O[C@@H]21	3.5
CCOC(=O)c1c(N)sc(-c2ccccc2)c1C	100
C[C@@H](CN1CC(=O)NC(=O)C1)N1CC(=O)NC(=O)C1	98.6
C[n+]1ccc(/C=C/c2c[nH]c3ccccc23)cc1	6.4
c1cc2c(cc1C1CCCCC1)c1c3n2CCNC3CCC1 (centres unmarked)	10.5
CCOC(=O)c1ccc(N2NC(=O)/C(=C/c3ccc([N+](=O)[O-])o3)C2=O)cc1	43.8

Block 2
Target: Phosphate system positive regulatory protein PHO4, full length, GST-tagged (PHO4, Saccharomyces cerevisiae, UniProt P07270, residues 1-312)
Method: competition protein-binding microarray
Form: double-stranded DNA, one strand shown
Medium: in vitro
Tested at: 2 µM
Setting: whole 60-bp probe, lowest competitor level
Together with: Cbf1 competitor, 0.05 µM
Reading: higher = stronger binding
Constant ends, left off below: … GTCTTGATTCGCTTGACGCTGCTG
Construct (chain): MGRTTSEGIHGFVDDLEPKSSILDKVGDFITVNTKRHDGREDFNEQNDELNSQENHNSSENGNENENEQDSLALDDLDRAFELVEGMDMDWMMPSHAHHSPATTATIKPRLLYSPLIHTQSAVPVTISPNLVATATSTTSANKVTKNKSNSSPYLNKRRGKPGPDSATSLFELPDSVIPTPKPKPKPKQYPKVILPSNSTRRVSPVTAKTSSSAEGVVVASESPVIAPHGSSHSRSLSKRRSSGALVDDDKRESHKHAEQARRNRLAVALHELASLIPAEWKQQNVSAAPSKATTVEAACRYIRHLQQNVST
Sequence	fluorescence intensity [a.u.]
CCGAGTATGTATCCACACGTTGGTACAGGGCGCCAG	9310
CTTCTGTAAATTTGAGTCGTGGGTGGACGCGCCCCG	6650
GTTATTGGGCTAGGACACGTATGCGAACTACAACCT	6310
TCTTACCTCCGTTAGCACGTCGTTGGTTAGGCTACT	6310
TGTGCTTGGTTTGGAAACGTGCAAACACCTTACCTG	11700
GCCGCATTGCACCTTGTCGTGATGGATTCTAAGTAC	5230
CGGGGTTAAGTTTGCGCCGTGGGTGGCTTGCAGCAG	6010
TGCGGCCATAAGCGTCACAGGCCACTCACTGGGAGG	3380

Block 3
Target: Interferon regulatory factor 7, full length, phosphomimetic (IRF7, Homo sapiens, UniProt Q92985, residues 1-503, S471D/S472D/S475D/S476D/S477D/S483D/S484D/S487D)
Method: protein-binding microarray
Form: double-stranded DNA, one strand shown
Medium: in vitro
Tested at: 2200 nM top
Setting: 60-bp whole probe
Together with: salmon DNA 0.4 mg/ml
Baseline: random background probes
Reading: higher = stronger binding
Constant ends, left off below: GCCTAGCAC … GTCTTGATTCGCTTGACGCTGCTG
Target sequence (chain): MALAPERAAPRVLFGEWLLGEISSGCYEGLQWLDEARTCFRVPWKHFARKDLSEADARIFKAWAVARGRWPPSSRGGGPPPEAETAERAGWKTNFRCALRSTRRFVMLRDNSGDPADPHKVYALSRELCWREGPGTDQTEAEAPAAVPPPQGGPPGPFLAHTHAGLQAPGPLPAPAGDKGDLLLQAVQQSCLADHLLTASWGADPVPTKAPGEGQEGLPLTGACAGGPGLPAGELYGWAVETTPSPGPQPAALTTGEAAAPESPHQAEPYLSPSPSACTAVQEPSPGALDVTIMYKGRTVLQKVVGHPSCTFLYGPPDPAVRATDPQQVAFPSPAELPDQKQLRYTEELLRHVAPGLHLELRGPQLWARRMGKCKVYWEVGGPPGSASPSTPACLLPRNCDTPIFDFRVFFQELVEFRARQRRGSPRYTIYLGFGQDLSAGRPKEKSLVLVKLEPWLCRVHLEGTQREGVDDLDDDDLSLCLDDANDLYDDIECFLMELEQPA
Sequence	fitted relative affinity [z-score]
GACGGGTTCCTACTGCTGACGTGCTAG	0.573
GACGGTTTCAGTTTCGAGACGTGCTAG	7.5
TTAGGTTTCCTTTTCTTTTAGTGCTAG	4.27
TCAATACTCTTCCATGGAACTGTGCTA	0.642
AATATTCTGCTTTGCAATAAGTGCTAG	0.59
TTAGGACTGCACTTTCGGTTAGTGCTA	7.35
TCAAACTTCGGCCTCTAACTGTGCTAG	0.532
GATTTTTTAGCTTGCAAAAAGTGCTAG	-0.407

Block 4
Target: Replicase polyprotein 1ab, nsp13 helicase (rep, Severe acute respiratory syndrome coronavirus 2, UniProt P0DTD1)
Action: inhibitor
Tested at: 20 µM
Compound	inhibition [%]
C[C@@H](O)[C@H](N)C(=O)N1CCC[C@H]1C(=O)N1CCC[C@H]1C(=O)N[C@H](C(N)=O)[C@@H](C)O	5.87
COc1c(N2CCNC(C)C2)c(F)cc2c(=O)c(C(=O)O)cn(C3CC3)c12 (centres unmarked)	9.55
C=CCC1(CC(C)C)C(=O)NC(=O)NC1=O	4.09
NCC1(CC(=O)O)CCCCC1	2.62
CC(C)(Sc1cc(C(C)(C)C)c(O)c(C(C)(C)C)c1)Sc1cc(C(C)(C)C)c(O)c(C(C)(C)C)c1	4.06
NC(=O)N1c2ccccc2CC(=O)c2ccccc21	5.89
COc1ccc(N(C)c2nc(C)nc3ccccc23)cc1	0.17
C=CC(=O)N1CCC[C@@H](n2nc(-c3ccc(Oc4ccccc4)cc3)c3c(N)ncnc32)C1	-0.23
Cc1n[nH]c(C)c1Cc1sc2c(c1C(=O)N1C[C@H](O)CO1)c(=O)n(C)c(=O)n2CC(C)C	-2.31
COc1ccc([C@@H]2CC(=O)c3c(O)cc(O[C@@H]4O[C@H](CO[C@@H]5O[C@@H](C)[C@H](O)[C@@H](O)[C@H]5O)[C@@H](O)[C@H](O)[C@H]4O)cc3O2)cc1O	7.93
OCCN1CCN(CC/C=C2/c3ccccc3Sc3ccc(C(F)(F)F)cc32)CC1	1.99
CCC(=O)NC[C@@H]1C[C@H]1c1cccc2c1CCO2	1.61
Nc1ccc2cc3ccc(N)cc3nc2c1	28.8
CNCC(O)c1ccc(O)cc1 (centres unmarked)	10
CCC(C)(C)C(=O)C(=O)N1CCC[C@H]1C(=O)OCCCc1cccnc1	2.69
CC(C)C[C@@H](C(=O)N[C@H](C(=O)OC1CCCC1)c1ccccc1)[C@H](O)C(=O)NO	4.45
Cc1cc(/C=C/C#N)cc(C)c1Nc1ccnc(Nc2ccc(C#N)cc2)n1	5.42
Cn1c2cc([S+](C)[O-])sc2c2cnn(Cc3cccc(N)c3)c(=O)c21 (centres unmarked)	8.27
COc1cc(N)c(Cl)cc1C(=O)NC1CN2CCC1CC2 (centres unmarked)	-1.82
CCN(CC)CCOc1ccccc1C(=O)CCc1ccccc1	-17.9
OC[C@H]1O[C@H](O[C@H]2O[C@H](CO)[C@@H](O)[C@H](O)[C@H]2O)[C@H](O)[C@@H](O)[C@@H]1O	0.01
CC(OC(=O)NCC1(CC(=O)O)CCCCC1)OC(=O)C(C)C (centres unmarked)	-4.97
Nc1[nH]cnc2ncnc1-2	-31.1
CNC(=O)c1cc(COc2nnc(Nc3ccc(Cl)cc3)c3ccoc23)ccn1	4.84
NC(=O)NCCC[C@H](N)C(=O)O	3.05

Block 5
Cell line: HEK-293T/ACE2
Tested at: 10 µM
Time: 16 h
Baseline: vehicle
SMILES	viability
O=C1OC2(c3ccc(O)cc3Oc3cc(O)ccc32)c2ccccc21	102%
CNC(=O)c1ccccc1Sc1ccc2c(/C=C/c3ccccn3)n[nH]c2c1	65.5%
CCCCC1C(=O)N(c2ccccc2)N(c2ccccc2)C1=O	101%
Cc1c(-c2ccccc2)oc2c(C(=O)OCCN3CCCCC3)cccc2c1=O	101%
CCCCCOC(=O)Nc1nc(=O)n([C@@H]2O[C@H](C)[C@@H](O)[C@H]2O)cc1F	98.9%
CC[C@H]1OC(=O)[C@H](C)[C@@H](O[C@H]2C[C@@](C)(OC)[C@@H](O)[C@H](C)O2)[C@H](C)[C@@H](O[C@@H]2O[C@H](C)C[C@H](N(C)C)[C@H]2O)[C@](C)(OC)C[C@@H](C)C(=O)[C@H](C)[C@@H](O)[C@]1(C)O	101%

Some of these lines once more (block 4):
Compound	inhibition [%]
C=CCC1(CC(C)C)C(=O)NC(=O)NC1=O	4.09
NCC1(CC(=O)O)CCCCC1	2.62
CC(C)(Sc1cc(C(C)(C)C)c(O)c(C(C)(C)C)c1)Sc1cc(C(C)(C)C)c(O)c(C(C)(C)C)c1	4.06
NC(=O)N1c2ccccc2CC(=O)c2ccccc21	5.89
COc1ccc(N(C)c2nc(C)nc3ccccc23)cc1	0.17
C=CC(=O)N1CCC[C@@H](n2nc(-c3ccc(Oc4ccccc4)cc3)c3c(N)ncnc32)C1	-0.23
